Experimental data of several laboratories.
Every numbered part comes from another study and shows a few of its results, in no order.
Chain of UniProt Q8IW41 (whole entry, looked up): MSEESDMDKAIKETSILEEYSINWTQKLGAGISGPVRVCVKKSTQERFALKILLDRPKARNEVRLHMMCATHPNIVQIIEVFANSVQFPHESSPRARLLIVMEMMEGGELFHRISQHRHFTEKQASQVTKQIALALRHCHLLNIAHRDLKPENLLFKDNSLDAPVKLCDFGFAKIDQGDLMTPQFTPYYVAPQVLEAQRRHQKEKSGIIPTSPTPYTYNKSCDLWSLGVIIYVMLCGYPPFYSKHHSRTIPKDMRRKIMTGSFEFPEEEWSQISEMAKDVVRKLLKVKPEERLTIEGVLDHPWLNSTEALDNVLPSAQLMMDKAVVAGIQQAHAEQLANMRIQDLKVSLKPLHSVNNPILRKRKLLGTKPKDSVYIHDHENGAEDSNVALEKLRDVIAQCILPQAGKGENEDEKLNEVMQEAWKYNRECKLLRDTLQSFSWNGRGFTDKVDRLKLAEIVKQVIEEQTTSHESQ
Chain of UniProt P14616 (whole entry, looked up): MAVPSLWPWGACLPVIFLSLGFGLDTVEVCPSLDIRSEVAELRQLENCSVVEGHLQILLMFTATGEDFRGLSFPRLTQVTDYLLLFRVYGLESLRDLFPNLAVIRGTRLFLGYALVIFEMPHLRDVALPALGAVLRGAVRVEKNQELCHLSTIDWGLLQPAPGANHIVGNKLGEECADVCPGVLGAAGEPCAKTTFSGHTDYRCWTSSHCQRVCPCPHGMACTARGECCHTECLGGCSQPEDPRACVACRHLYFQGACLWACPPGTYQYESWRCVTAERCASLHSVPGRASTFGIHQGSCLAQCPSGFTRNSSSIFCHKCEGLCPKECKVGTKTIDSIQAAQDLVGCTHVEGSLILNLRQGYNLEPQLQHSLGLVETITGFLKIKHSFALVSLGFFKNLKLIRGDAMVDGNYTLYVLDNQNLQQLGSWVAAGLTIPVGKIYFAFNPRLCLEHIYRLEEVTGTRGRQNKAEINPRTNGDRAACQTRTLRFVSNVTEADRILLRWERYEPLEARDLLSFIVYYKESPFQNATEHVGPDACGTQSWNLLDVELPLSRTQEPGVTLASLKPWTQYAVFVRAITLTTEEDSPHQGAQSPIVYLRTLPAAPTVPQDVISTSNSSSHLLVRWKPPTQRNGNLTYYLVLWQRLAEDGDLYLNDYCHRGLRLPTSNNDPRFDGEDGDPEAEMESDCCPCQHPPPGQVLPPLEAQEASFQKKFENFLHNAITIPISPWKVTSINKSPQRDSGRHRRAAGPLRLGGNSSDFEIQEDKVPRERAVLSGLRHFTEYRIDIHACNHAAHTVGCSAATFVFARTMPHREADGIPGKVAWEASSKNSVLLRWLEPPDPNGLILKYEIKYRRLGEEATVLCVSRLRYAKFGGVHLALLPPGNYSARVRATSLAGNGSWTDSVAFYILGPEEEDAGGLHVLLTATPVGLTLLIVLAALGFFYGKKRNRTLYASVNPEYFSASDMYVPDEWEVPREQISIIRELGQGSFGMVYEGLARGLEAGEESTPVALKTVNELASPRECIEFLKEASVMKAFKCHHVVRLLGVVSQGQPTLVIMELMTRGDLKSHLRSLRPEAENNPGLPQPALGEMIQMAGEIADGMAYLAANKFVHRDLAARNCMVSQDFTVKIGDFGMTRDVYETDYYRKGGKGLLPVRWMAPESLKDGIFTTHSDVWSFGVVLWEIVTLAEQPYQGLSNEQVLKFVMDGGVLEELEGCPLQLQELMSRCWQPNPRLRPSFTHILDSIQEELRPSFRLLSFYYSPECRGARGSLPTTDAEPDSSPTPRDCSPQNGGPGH
Chain of UniProt Q9Y616 (whole entry, looked up): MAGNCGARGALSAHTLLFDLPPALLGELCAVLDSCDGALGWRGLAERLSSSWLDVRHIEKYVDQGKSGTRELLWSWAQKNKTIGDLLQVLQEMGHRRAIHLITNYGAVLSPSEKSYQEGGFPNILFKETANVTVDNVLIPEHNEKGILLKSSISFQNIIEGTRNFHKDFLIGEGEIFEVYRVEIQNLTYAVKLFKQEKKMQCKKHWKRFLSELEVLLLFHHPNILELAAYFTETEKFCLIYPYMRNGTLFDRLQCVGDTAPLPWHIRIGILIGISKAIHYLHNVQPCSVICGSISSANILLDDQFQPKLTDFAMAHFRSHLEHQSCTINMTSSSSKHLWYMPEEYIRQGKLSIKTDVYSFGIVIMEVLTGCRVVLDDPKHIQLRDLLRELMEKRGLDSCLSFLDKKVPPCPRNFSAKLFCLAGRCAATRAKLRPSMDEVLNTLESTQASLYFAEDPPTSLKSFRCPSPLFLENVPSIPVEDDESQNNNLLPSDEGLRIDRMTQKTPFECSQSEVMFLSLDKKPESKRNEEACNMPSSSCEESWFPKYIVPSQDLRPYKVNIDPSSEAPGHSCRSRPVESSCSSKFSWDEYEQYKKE
Chain of UniProt Q8N568 (whole entry, looked up): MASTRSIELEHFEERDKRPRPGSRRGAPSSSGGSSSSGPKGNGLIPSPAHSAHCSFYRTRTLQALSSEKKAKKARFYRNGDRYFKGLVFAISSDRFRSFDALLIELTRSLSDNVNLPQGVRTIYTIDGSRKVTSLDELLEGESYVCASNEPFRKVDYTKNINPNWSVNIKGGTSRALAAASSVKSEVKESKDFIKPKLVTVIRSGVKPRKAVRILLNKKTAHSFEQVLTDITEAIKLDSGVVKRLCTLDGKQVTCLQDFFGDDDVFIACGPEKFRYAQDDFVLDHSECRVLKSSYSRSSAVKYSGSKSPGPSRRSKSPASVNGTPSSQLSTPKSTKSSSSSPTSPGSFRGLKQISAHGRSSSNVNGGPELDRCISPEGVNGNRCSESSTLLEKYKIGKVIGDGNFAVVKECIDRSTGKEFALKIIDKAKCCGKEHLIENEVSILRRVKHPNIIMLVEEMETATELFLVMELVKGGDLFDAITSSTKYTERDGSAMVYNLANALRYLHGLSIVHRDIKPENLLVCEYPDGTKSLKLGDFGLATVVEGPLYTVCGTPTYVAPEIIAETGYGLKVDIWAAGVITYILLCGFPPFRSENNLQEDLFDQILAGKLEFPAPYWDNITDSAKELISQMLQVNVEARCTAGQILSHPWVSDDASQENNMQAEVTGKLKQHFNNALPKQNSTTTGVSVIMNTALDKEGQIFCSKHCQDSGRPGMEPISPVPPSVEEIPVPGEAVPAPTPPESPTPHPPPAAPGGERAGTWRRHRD

Series 1
Target: Prothrombin, mature alpha-thrombin (F2, Homo sapiens, UniProt P00734)
Method: aptamer microarray, sandwich
Molecule type: DNA with 2'F-ANA
Sample: in vitro
Concentration: 200 nM
Notes: whole 15-mer aptamer, many near background
With: Cy3 exosite-II aptamer, 400 nM
Reading: higher = stronger binding
Strand: GGTTGGTGTGGTTGG
Modification | mean fluorescence intensity [a.u.]
2'F-ANA at 2 3 4 5 11 14 15 | 50.4
2'F-ANA at 4 5 6 10 12 | 51.3
2'F-ANA at 1 2 3 8 9 | 293
2'F-ANA at 3 5 6 8 9 10 11 14 15 | 52.2
2'F-ANA at 1 4 7 11 12 | 261
2'F-ANA at 4 5 6 8 9 10 12 13 14 | 173
2'F-ANA at 1 2 4 10 12 13 14 15 | 49.4
2'F-ANA at 1 4 7 11 12 13 | 163

Series 2
Host: human
Sample: microsomes or S9
Concentration: 2 µM
Time: 0.5 h
SMILES | remaining compound [%]
CCc1cc2c3c([nH]c2cc1S(=O)(=O)N(Cc1ccccc1)C(C)C)CCCC3=O | > 99
CCC(CC)CN1CC2(CCN(C(=O)[C@@H]3C[C@H](N)CN3C)CC2)OC1=O | > 100
CCn1cc(N(CC(C)C)C(=O)c2nncc3ccccc23)cn1 | 91.7
CN(C)c1nc(N)nc(CNc2nccc(C3CCCC3)n2)n1 | 1.57
COC(=O)c1sccc1NC(=O)c1cn(C)c(=O)cc1OC | 3.78

Series 3
SMILES: CN([C@@H]1CCc2c(CC(=O)O)c3ccccc3n2C1)S(=O)(=O)c1ccc(F)cc1
Observed: cell-free assay
Method: competition with immobilised ligand
Concentration: 1 µM
target | remaining binding
IRAK3 (Homo sapiens, UniProt Q9Y616) | 100%
INSRR (Homo sapiens, UniProt P14616) | 100%
CDK2 (Homo sapiens, UniProt P24941) | 100%
MAPKAPK5 (Homo sapiens, UniProt Q8IW41) | 94%
Ribosomal protein S6 kinase alpha-3, C-terminal kinase domain (RPS6KA3, Homo sapiens, UniProt P51812) | 86%
DCLK2 (Homo sapiens, UniProt Q8N568) | 100%

Series 4
Organism: Sarcocystis neurona
Observed: parasite growth
Concentration: 10 µM
Time: 96 h
Notes: second screen
Baseline: untreated
Compound | log2 fold change
CC[C@H](C)C(=O)O[C@H]1C[C@@H](C)C=C2C=C[C@H](C)[C@H](CC[C@@H]3C[C@@H](O)CC(=O)O3)[C@H]21 | 0.48
CC[C@]1(O)C[C@@H]2CN(CCc3c([nH]c4ccccc34)[C@@](C(=O)OC)(c3cc4c(cc3OC)N(C)[C@H]3[C@@](O)(C(N)=O)[C@H](O)[C@]5(CC)C=CCN6CC[C@]43[C@@H]65)C2)C1 | 0.04
C[C@H]1COc2c(C3(N)CC3)c(F)cc3c(=O)c(C(=O)O)cn1c23 | 0.29
CO[C@@H]1[C@@H](O[C@@H]2O[C@H](C)[C@@H](O[C@H]3C[C@@](C)(O)[C@@H](OC(=O)CC(C)C)[C@H](C)O3)[C@H](N(C)C)[C@H]2O)[C@@H](CC=O)C[C@@H](C)[C@@H](O)/C=C/C=C/C[C@@H](C)OC(=O)C[C@H]1OC(C)=O | -0.14

Series 5
Target: Rho-associated protein kinase 1 (ROCK1, Homo sapiens, UniProt Q13464)
Chain of UniProt Q13464 (whole entry, looked up): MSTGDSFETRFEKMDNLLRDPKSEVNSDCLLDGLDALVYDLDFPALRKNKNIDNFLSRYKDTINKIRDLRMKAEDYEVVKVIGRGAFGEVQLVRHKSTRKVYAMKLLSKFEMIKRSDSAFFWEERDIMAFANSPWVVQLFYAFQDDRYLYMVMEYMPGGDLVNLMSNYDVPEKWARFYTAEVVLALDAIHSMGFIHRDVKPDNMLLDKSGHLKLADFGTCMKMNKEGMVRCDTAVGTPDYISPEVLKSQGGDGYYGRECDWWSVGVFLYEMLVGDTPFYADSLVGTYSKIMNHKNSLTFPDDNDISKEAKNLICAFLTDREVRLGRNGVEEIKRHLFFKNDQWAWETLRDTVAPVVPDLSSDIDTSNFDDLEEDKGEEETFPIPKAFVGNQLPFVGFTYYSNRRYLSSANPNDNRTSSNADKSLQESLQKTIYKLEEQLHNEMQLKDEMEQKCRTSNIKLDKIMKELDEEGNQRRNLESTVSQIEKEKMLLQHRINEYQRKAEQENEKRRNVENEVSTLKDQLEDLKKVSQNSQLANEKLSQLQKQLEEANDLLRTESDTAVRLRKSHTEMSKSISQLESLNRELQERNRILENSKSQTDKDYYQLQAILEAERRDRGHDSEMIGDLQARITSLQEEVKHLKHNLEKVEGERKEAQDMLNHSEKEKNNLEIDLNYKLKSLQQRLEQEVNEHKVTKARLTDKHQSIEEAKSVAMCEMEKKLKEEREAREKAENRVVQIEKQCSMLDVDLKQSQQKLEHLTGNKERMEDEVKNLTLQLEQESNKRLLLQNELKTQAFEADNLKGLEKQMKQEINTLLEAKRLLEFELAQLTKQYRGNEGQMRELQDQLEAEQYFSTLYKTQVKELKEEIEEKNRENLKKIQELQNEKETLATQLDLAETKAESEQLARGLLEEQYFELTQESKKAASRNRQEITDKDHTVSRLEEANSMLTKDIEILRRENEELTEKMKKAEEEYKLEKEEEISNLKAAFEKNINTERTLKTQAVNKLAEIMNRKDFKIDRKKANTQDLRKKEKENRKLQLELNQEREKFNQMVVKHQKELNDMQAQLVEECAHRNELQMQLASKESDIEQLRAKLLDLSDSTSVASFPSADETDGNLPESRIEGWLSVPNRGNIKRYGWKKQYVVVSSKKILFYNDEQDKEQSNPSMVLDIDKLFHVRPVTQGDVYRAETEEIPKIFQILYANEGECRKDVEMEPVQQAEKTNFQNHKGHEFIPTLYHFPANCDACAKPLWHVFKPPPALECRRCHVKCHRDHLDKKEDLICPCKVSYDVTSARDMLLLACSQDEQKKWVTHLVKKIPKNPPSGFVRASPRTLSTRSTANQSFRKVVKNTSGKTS
Observed: enzyme activity
Mode: inhibitor
Concentration: 0.5 µM
Baseline: control
Structure (SMILES) | remaining activity [%]
COc1cc2ncnc(Nc3ccc(F)c(Cl)c3)c2cc1OCCCN1CCOCC1 | 106
CN(C)c1ccc(C=C2C(=O)Nc3ccccc32)cc1 | 98.3
COc1ccc(OC)c2c(=S)c3ccccc3[nH]c12 | 97.8
C#Cc1cccc(Nc2ncnc3cc(OCCOC)c(OCCOC)cc23)c1 | 107
Oc1ccc(-c2nc(-c3ccncc3)c(-c3ccc(F)cc3)[nH]2)cc1 | 101
CC(C)[C@H](CO)Nc1nc(Nc2cc(N)cc(Cl)c2)c2ncn(C(C)C)c2n1 | 90
CCOC(=O)c1c(C)[nH]c(/C=C2\C(=O)Nc3ccccc32)c1C | 99.1
Cc1cccc(-c2[nH]c(C(C)(C)C)nc2-c2ccc3c(c2)OCO3)n1 | 101
O=c1c2ccccc2[nH]c(=S)n1CCN1CCC(=C(c2ccc(F)cc2)c2ccc(F)cc2)CC1 | 97.2
COc1cc2nccc(Oc3ccc(NC(=S)NC(=O)c4ccccc4C)cc3)c2cc1OC | 90.5
COc1ccc(CNC(=O)Nc2ncc([N+](=O)[O-])s2)cc1 | 102
Cc1ccc(Nc2nccc(N(C)c3ccc4c(C)n(C)nc4c3)n2)cc1S(N)(=O)=O | 100
COc1ccc(C(=O)Nc2sc3c(c2C(N)=O)CCCC3)cc1OC | 107
CO[C@H]1C[C@@H]2CC[C@@H](C)[C@@](O)(O2)C(=O)C(=O)N2CCCC[C@H]2C(=O)O[C@H]([C@H](C)C[C@@H]2CC[C@@H](O)[C@H](OC)C2)CC(=O)[C@H](C)/C=C(\C)[C@@H](O)[C@@H](OC)C(=O)[C@H](C)C[C@H](C)/C=C/C=C/C=C/1C | 103
CNC(=O)c1cc(Oc2ccc(NC(=O)Nc3ccc(Cl)c(C(F)(F)F)c3)cc2)ccn1 | 102
O=C(Nc1cccc(Nc2cc(Nc3cccc(C(F)(F)F)c3)ncn2)c1)C1CC1 | 98.7
OCC(O)CCON=C1C(c2c(O)[nH]c3ccccc23)=Nc2ccccc21 (stereo not drawn) | 101
NCCNc1ncc(C(N)=O)c(Nc2cccc(C(F)(F)F)c2)n1 | 87.8
Nc1[nH]nc2nc3ccccc3nc12 | 99
Nc1ncnc2n[nH]c(Nc3ccc(F)cc3)c12 | 100
Cn1sc(=O)n(Cc2ccccc2)c1=O | 94.6
O=C1NC(=O)C(c2cn(CCCO)c3ncccc23)=C1c1cnccn1 | 90.2
Cn1c2ccccc2c2c3c(c4c5ccccc5n(CCC#N)c4c21)CNC3=O | 61.9
Nc1ccc2ncnc(NCCc3ccc(Oc4ccccc4)cc3)c2c1 | 94.4
Cc1ccc(NC(=O)c2ccc(CN3CCN(C)CC3)cc2)cc1Nc1nc(-c2cccnc2)cs1 | 102

Series 6
Target: Hepatocyte nuclear factor 3-beta, forkhead domain (FOXA2, Homo sapiens, UniProt Q9Y261, residues 142-269)
Method: protein-binding microarray
Molecule type: double-stranded DNA, one strand shown
Sample: in vitro
Concentration: not given
Notes: k-mer, scored over probes, only values ≥0.25
Reading: higher = stronger binding
Construct (chain): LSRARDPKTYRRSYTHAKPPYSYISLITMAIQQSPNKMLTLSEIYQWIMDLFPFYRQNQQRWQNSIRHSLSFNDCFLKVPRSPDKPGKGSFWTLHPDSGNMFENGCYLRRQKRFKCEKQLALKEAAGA
Strand | E-score
CATCATTA | 0.311
AATTTACT | 0.3
AGCTATAT | 0.3
ATAATTGA | 0.285
TGTTAACA | 0.405
TAATTACA | 0.321
ATTAGTAA | 0.284
AAATGATA | 0.335

Other studies, line by line
SMILES | test system | conditions | measurement | result
CC(C)n1cnc(-c2ccc(F)cc2)c1-c1ncc(C(=O)Nc2ccc(N3CCN(C)CC3)cc2)[nH]1 | human, idiopathic pulmonary fibrosis | 30 mg once daily, trial, treatment-emergent | patients with respiratory tract infection | 0%

Excerpt of the above (series 5):
Structure (SMILES) | remaining activity [%]
Oc1ccc(-c2nc(-c3ccncc3)c(-c3ccc(F)cc3)[nH]2)cc1 | 101
Cc1ccc(Nc2nccc(N(C)c3ccc4c(C)n(C)nc4c3)n2)cc1S(N)(=O)=O | 100
Cc1ccc(NC(=O)c2ccc(CN3CCN(C)CC3)cc2)cc1Nc1nc(-c2cccnc2)cs1 | 102
COc1ccc(C(=O)Nc2sc3c(c2C(N)=O)CCCC3)cc1OC | 107
CO[C@H]1C[C@@H]2CC[C@@H](C)[C@@](O)(O2)C(=O)C(=O)N2CCCC[C@H]2C(=O)O[C@H]([C@H](C)C[C@@H]2CC[C@@H](O)[C@H](OC)C2)CC(=O)[C@H](C)/C=C(\C)[C@@H](O)[C@@H](OC)C(=O)[C@H](C)C[C@H](C)/C=C/C=C/C=C/1C | 103
Cc1cccc(-c2[nH]c(C(C)(C)C)nc2-c2ccc3c(c2)OCO3)n1 | 101
O=c1c2ccccc2[nH]c(=S)n1CCN1CCC(=C(c2ccc(F)cc2)c2ccc(F)cc2)CC1 | 97.2
O=C1NC(=O)C(c2cn(CCCO)c3ncccc23)=C1c1cnccn1 | 90.2
COc1cc2ncnc(Nc3ccc(F)c(Cl)c3)c2cc1OCCCN1CCOCC1 | 106
